# Experimental data gathered from unrelated publications.
# Parts stem from different laboratories: compare values within a part only. Positions count from the first letter of the parent shown.

# Series 1 — method: RNA Bind-n-Seq; form: RNA; matrix: in vitro; tested at: 20 nM; setting: 6-mer, flanks averaged, single round; added: 150 mM LiCl; relative to: input library; direction: higher = stronger binding
# Target: TAR DNA-binding protein 43, full length, His tag (TARDBP, Homo sapiens, UniProt Q13148, residues 1-414)
Sequence,6-mer enrichment (R)
GAGCAU,0.924
AACCGC,0.844
GUGAUC,0.97
GCCUUA,0.983
GGCCCA,1.02
CAACCC,0.945
AAAAAG,0.888
AUAUAG,0.93

# Series 2 — method: RNA Bind-n-Seq; form: RNA; matrix: in vitro; tested at: 100 nM; relative to: input RNA pool; direction: higher = stronger binding
# Target: RING finger protein unkempt homolog, zinc fingers 1-6, SBP tag (UNK, Homo sapiens, UniProt Q9C0B0, residues 30-357)
# Sequence of UniProt Q9C0B0 (30-357, looked up): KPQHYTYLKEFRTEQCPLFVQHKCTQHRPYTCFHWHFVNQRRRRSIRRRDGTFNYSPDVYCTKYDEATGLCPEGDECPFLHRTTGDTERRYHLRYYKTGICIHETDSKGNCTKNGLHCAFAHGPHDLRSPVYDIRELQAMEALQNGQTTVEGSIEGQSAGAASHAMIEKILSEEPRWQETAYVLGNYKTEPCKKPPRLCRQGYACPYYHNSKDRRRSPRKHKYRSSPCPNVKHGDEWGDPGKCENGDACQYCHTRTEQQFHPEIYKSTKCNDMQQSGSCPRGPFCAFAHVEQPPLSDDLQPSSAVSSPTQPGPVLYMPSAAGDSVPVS
# Setting: RNA with constant flanks, vertebrate orthologous sites, ends assumed
# Constant ends, left off below: GGGAGUUCUACAGUCCGACGAUC … CAACAGAGGAUUGAGCAUCA
Sequence,bound/input enrichment [ratio]
UUCAGGCACAACUGACUGGUUCACAGCAUCCUUUACAUAGUUAUCUGUCAGGUGCAGGUGUAGUUAAUUUUCAGGAAACAAGCAGGCAGUCCUCUUUAUCCUGUAGCCCAGUUGGAGAUU,1.32
CUACUAUAAACAACUCAGGGCAGUAUUCUCGGUAUCCUUACAGUAACCUAAAUCAGGGAUUAGUUAACAAUACAGGGAUGAAUCAAAAUUUAGGCCUUACAAAUAACACUCCAAUGAAUC,1.34
GCUAUUAAUGCACUGUAUUCCAGGCAUCGUCUGAAUUUUAGUGUAAUCUAGGAGAUUUUAUAAUUUUAUUUUAAUGAAGUAUGGAUUGAUGCAGAGUUGUUAGCAGUCUGUAGUCUUUUA,1.09
GCAUGCACAUGCCGCUGUCACCAAAAGCAAACAUGGUCUUCAAAAUCUCCAAUAGCGUUUUUAGUAUUCUCUCCCUCCUUCCCUUCUGUUCACCCAAUGCUUUAAAUGAUUAGAAGUCCU,2.73
AAUCAGUAGAAUUACAUAAUACUAAAGUUGCAGUUGAAAGGAUAUCCAAGUAUGUGUUGGUAGUUACUAAAAGAAUUAUAGCUGUUAUUGCCUUGUAUUUAUAGCCCUUGUUUCAGGUUU,0.978
CUCCUAGCGUCAUACCAGCAUCUUCGCUAUCAGACGUGCACAGCUUACAAAGGAACAGUCUAGUGGUAUUGGUUAUUUUCAUUUCAAAACCUACUUUUUUUUUCCCAAGGCUGAAAAAAA,0.54
ACGCUUUGAUAUUAAAUUUGACAUAAAAAGCAGCUGAUUGUAAGCACAACUCUUUCCUCCUAGCCAUUUAAAAAGGUAAAAAACAAAAAAGAAAACCUACUAGUCUUGAACAAACUGUCA,0.61
UGCUCUCCUCCUGGGUGCGUGACUGAGGGCCAGGUGCCCUCCUCCAGUGCCGCGAGGGGUGCAUAGUGGUUUGGGGCUGCCUCCGAGUCCCCAAAGCCUUGGGGCAGAAGUGACAGUAGA,0.271

# Series 3 — method: protein-binding microarray; form: double-stranded DNA, one strand shown; matrix: in vitro; tested at: not given; direction: higher = stronger binding
# Target: Cyclic AMP-dependent transcription factor ATF-1 (ATF1, Homo sapiens, UniProt P18846, residues 1-271, full length assumed)
# Setting: k-mer, scored over probes, only values ≥0.25
# Target sequence (chain): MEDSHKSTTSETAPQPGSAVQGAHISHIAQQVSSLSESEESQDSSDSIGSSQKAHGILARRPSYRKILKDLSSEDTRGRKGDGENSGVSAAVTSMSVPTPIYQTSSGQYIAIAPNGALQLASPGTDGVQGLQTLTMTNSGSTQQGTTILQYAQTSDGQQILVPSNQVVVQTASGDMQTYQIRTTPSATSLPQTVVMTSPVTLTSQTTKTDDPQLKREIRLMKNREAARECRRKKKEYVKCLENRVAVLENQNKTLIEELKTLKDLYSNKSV
Sequence,E-score
ACGTCAT,0.496
CACCCCA,0.252
ACGTCGG,0.321
ATGACAG,0.258
CGTAAAC,0.282
CATGACA,0.296
CACGTGA,0.317
ACGTGTC,0.334

# Single results of other studies
# Starting sequence: PafA, mature enzyme, eGFP fusion (Elizabethkingia meningoseptica, UniProt Q9KJX5); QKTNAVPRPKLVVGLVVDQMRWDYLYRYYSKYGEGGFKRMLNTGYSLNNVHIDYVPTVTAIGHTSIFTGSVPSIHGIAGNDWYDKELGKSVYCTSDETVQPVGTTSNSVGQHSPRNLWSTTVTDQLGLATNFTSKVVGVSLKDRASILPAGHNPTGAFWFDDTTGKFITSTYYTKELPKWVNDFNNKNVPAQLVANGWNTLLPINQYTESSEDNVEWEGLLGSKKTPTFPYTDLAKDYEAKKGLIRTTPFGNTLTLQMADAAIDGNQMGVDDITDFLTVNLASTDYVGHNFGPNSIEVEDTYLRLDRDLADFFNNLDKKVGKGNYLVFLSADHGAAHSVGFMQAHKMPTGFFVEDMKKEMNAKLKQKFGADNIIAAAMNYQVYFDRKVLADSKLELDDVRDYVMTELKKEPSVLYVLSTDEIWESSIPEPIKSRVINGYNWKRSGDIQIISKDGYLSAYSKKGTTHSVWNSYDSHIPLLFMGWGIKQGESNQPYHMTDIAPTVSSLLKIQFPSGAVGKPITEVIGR
Substitution,target,test,system,conditions,scale,endpoint,value
N437V,"tungstate, free oxyanion",microfluidic competitive inhibition,"in vitro, cell-free expressed","not given, derived from inhibition constants, unchanged parent 2230 nM",lower = stronger binding,oxyanion analog dissociation constant,1.04 µM

# Excerpt of the above (series 2):
Sequence,bound/input enrichment [ratio]
GCUAUUAAUGCACUGUAUUCCAGGCAUCGUCUGAAUUUUAGUGUAAUCUAGGAGAUUUUAUAAUUUUAUUUUAAUGAAGUAUGGAUUGAUGCAGAGUUGUUAGCAGUCUGUAGUCUUUUA,1.09
GCAUGCACAUGCCGCUGUCACCAAAAGCAAACAUGGUCUUCAAAAUCUCCAAUAGCGUUUUUAGUAUUCUCUCCCUCCUUCCCUUCUGUUCACCCAAUGCUUUAAAUGAUUAGAAGUCCU,2.73
AAUCAGUAGAAUUACAUAAUACUAAAGUUGCAGUUGAAAGGAUAUCCAAGUAUGUGUUGGUAGUUACUAAAAGAAUUAUAGCUGUUAUUGCCUUGUAUUUAUAGCCCUUGUUUCAGGUUU,0.978
CUCCUAGCGUCAUACCAGCAUCUUCGCUAUCAGACGUGCACAGCUUACAAAGGAACAGUCUAGUGGUAUUGGUUAUUUUCAUUUCAAAACCUACUUUUUUUUUCCCAAGGCUGAAAAAAA,0.54
